Measured values pooled from the literature.
Lines come from different studies, so protocols differ. ± gives the spread as reported.

CSCC[C@H](NC(=O)[C@H](CC(C)C)NC(=O)[C@H](Cc1c[nH]cn1)NC(=O)CNC(=O)[C@@H](NC(=O)[C@H](C)NC(=O)[C@H](Cc1c[nH]c2ccccc12)NC(=O)[C@H](CCC(N)=O)NC(=O)CNC(=O)[C@H](CO)NC(=O)CNC(=O)CCCCCCCNC(=O)CCC(=O)Nc1ccc(CNC23CNCCNCC(N)(CNCCNC2)CNCCNC3)cc1)C(C)C)C(N)=O [copper-64 labelled] — tissue uptake (female SCID mice, PC-3 xenograft, spleen; intravenous, 0.6 MBq, 24 h): 0.931 ± 0.091 %ID/g
CSCC[C@H](NC(=O)[C@H](CC(C)C)NC(=O)[C@H](Cc1c[nH]cn1)NC(=O)CNC(=O)[C@@H](NC(=O)[C@H](C)NC(=O)[C@H](Cc1c[nH]c2ccccc12)NC(=O)[C@H](CCC(N)=O)NC(=O)CCCCCNC(=O)CNC(=O)CNC(=O)CNC(=O)CSC(C)=O)C(C)C)C(N)=O [technetium-99m labelled] — tissue uptake (Swiss mouse, muscle; intravenous, 18.5 MBq, 240 min): 0.06 ± 0.02 %ID/g
N=C(N)NCCC[C@@H]1NC(=O)[C@H](CCCCNC(=O)CNC(=O)CNC(=O)CNC(=O)CC[C@H](NC(=O)CNC(=O)CNC(=O)CNC(=O)c2ccc(NN=Cc3ccccc3S(=O)(=O)O)nc2)C(=O)NCC(=O)NCC(=O)NCC(=O)NCCCC[C@@H]2NC(=O)[C@@H](Cc3ccccc3)NC(=O)[C@H](CC(=O)O)NC(=O)CNC(=O)[C@H](CCCNC(=N)N)NC2=O)NC(=O)[C@@H](Cc2ccccc2)NC(=O)[C@H](CC(=O)O)NC(=O)CNC1=O [technetium-99m labelled] — tissue uptake (athymic nu/nu mouse, female, MDA-MB-435 xenograft, tumour; intravenous, 2 µCi, 60 min): 7.85 ± 0.94 %ID/g
CC(C)C[C@H](NC(=O)[C@H](Cc1ccc(O)cc1)NC(=O)[C@@H](CCCNC(=N)N)NC(=O)[C@@H](CO)NC(=O)[C@H](Cc1ccccc1)NC(=O)[C@H](CC1CCCCC1)NC(=O)[C@H](CC(=O)O)NC(=O)CCC(C(=O)O)N1CCCN2CCN(CCCN(CC(=O)O)CC2)CC1)C(=O)N[C@@H](Cc1c[nH]c2ccccc12)C(=O)N[C@@H](CO)C(=O)O (stereo partly shown) [copper-64 labelled] — tissue uptake (female NMRI nude mice, tumor; 22 h p.i.): 2 ± 0.3 %ID/g
N=C(N)NCCC[C@@H]1NC(=O)[C@H](CCCCNC(=O)CC[C@H](NC(=O)CCOCCOCCOCCOCCNC(=O)CN2CCN(CC(=O)O)CCN(CC(=O)O)CCN(CC(=O)O)CC2)C(=O)NCCCC[C@@H]2NC(=O)[C@@H](Cc3ccccc3)NC(=O)[C@H](CC(=O)O)NC(=O)CNC(=O)[C@H](CCCNC(=N)N)NC2=O)NC(=O)[C@@H](Cc2ccccc2)NC(=O)[C@H](CC(=O)O)NC(=O)CNC1=O [indium-111 labelled] — tissue uptake (female athymic nude mice, kidney; intravenous, 3 µCi, 24 h, U-87 MG glioma xenograft): 2.79 ± 0.33 %ID/g
CSCC[C@H](NC(=O)[C@H](CC(C)C)NC(=O)[C@H](Cc1c[nH]cn1)NC(=O)CNC(=O)[C@@H](NC(=O)[C@H](C)NC(=O)[C@H](Cc1c[nH]c2ccccc12)NC(=O)[C@H](CCC(N)=O)NC(=O)[C@H](CC(N)=O)NC(=O)CNC(=O)[C@H](Cc1ccc(O)cc1)NC(=O)[C@H](CCCNC(=N)N)NC(=O)[C@H](CCC(N)=O)NC(=O)[C@@H]1CCCN1C(=O)CN1CCN(CC(=O)O)CCN(CC(=O)O)CCN(CC(=O)O)CC1)C(C)C)C(N)=O [indium-111 labelled] — tissue uptake (Swiss nu/nu mouse, male, PC-3 tumour xenograft, tumour; intravenous, 10 pmol, 24 h): 0.7 ± 0.4 %ID/g
N=C(N)NCCC[C@@H]1NC(=O)[C@H](CCCCNC(=O)CCOCCOCCOCCOCCNC(=O)CN2CCN(CC(=O)O)CCN(CC(=O)O)CCN(CC(=O)O)CC2)NC(=O)[C@@H](Cc2ccccc2)NC(=O)[C@H](CC(=O)O)NC(=O)CNC1=O [indium-111 labelled] — tissue uptake (female athymic nude mice, liver; intravenous, 3 µCi, 72 h, U-87 MG glioma xenograft): 0.3 ± 0.07 %ID/g
CCCC[C@H](NC(=O)CNC(=O)CNC(=O)c1ccc(NN)nc1)C(=O)N[C@H]1CC(=O)NCCCC[C@@H](C(N)=O)NC(=O)[C@H](Cc2c[nH]c3ccccc23)NC(=O)[C@H](CCCNC(=N)N)NC(=O)[C@@H](Cc2ccccc2)NC(=O)[C@H](Cc2c[nH]cn2)NC1=O [technetium-99m labelled] — tissue uptake (C57 mouse, B16/F1 melanoma-bearing, muscle; intravenous, 24 h): 0.03 ± 0.01 %ID/g
N=C(N)NCCC[C@@H]1NC(=O)[C@H](CCCCNC(=O)CNC(=O)CNC(=O)CNC(=O)CC[C@H](NC(=O)CCOCCOCCOCCOCCNC(=O)CC[C@H](NC(=O)CN2CCN(CC(=O)O)CCN(CC(=O)O)CCN(CC(=O)O)CC2)C(=O)NCCOCCOCCOCCOCCC(=O)N[C@@H](CCC(=O)NCC(=O)NCC(=O)NCC(=O)NCCCC[C@@H]2NC(=O)[C@@H](Cc3ccccc3)NC(=O)[C@H](CC(=O)O)NC(=O)CNC(=O)[C@H](CCCNC(=N)N)NC2=O)C(=O)NCC(=O)NCC(=O)NCC(=O)NCCCC[C@@H]2NC(=O)[C@@H](Cc3ccccc3)NC(=O)[C@H](CC(=O)O)NC(=O)CNC(=O)[C@H](CCCNC(=N)N)NC2=O)C(=O)NCC(=O)NCC(=O)NCC(=O)NCCCC[C@@H]2NC(=O)[C@@H](Cc3ccccc3)NC(=O)[C@H](CC(=O)O)NC(=O)CNC(=O)[C@H](CCCNC(=N)N)NC2=O)NC(=O)[C@@H](Cc2ccccc2)NC(=O)[C@H](CC(=O)O)NC(=O)CNC1=O [indium-111 labelled] — tissue uptake (female athymic nude mice, brain; intravenous, 3 µCi, 0.5 h, U-87 MG glioma xenograft): 0.2 ± 0.1 %ID/g
N=C(N)NCCC[C@@H]1NC(=O)[C@H](CC(=O)NC23CNCCNCC(N)(CNCCNC2)CNCCNC3)NC(=O)[C@@H](Cc2ccccc2)NC(=O)[C@H](CC(=O)O)NC(=O)CNC1=O [copper-64 labelled] — tissue uptake (Nu/Nu mouse, male, tumour-bearing, muscle; intravenous, 10 µCi, 2 h): 0.19 ± 0.03 %ID/g

Repeated from above:
CCCC[C@H](NC(=O)CNC(=O)CNC(=O)c1ccc(NN)nc1)C(=O)N[C@H]1CC(=O)NCCCC[C@@H](C(N)=O)NC(=O)[C@H](Cc2c[nH]c3ccccc23)NC(=O)[C@H](CCCNC(=N)N)NC(=O)[C@@H](Cc2ccccc2)NC(=O)[C@H](Cc2c[nH]cn2)NC1=O [technetium-99m labelled] — tissue uptake (C57 mouse, B16/F1 melanoma-bearing, muscle; intravenous, 24 h): 0.03 ± 0.01 %ID/g
